Results from different studies.
Each numbered part is a random draw from the data of one study; scales do not carry over between parts. Values joined by “and” are separate records of one study, mostly repeats; a detail may differ.
Chain of UniProt Q9UK32 (whole entry, looked up): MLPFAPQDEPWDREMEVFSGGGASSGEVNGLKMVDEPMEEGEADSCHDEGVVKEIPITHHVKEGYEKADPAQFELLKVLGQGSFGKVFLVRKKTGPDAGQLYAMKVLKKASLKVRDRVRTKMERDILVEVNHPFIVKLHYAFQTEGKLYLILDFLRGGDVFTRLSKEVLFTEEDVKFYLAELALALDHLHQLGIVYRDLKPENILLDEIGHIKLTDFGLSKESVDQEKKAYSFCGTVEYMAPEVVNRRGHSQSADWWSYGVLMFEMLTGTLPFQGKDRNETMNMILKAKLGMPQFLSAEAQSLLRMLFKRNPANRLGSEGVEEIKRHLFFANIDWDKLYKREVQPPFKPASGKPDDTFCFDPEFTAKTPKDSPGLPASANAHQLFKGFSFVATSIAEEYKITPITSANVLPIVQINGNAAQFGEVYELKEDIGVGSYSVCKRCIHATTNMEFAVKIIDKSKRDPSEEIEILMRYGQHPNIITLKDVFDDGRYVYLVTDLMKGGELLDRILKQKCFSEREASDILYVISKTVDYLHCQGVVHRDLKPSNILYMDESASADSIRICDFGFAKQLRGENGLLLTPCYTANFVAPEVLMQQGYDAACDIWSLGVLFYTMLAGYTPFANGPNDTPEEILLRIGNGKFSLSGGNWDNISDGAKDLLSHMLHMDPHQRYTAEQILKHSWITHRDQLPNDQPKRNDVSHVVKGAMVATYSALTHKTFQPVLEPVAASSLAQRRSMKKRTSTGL
Chain of UniProt O76039 (whole entry, looked up): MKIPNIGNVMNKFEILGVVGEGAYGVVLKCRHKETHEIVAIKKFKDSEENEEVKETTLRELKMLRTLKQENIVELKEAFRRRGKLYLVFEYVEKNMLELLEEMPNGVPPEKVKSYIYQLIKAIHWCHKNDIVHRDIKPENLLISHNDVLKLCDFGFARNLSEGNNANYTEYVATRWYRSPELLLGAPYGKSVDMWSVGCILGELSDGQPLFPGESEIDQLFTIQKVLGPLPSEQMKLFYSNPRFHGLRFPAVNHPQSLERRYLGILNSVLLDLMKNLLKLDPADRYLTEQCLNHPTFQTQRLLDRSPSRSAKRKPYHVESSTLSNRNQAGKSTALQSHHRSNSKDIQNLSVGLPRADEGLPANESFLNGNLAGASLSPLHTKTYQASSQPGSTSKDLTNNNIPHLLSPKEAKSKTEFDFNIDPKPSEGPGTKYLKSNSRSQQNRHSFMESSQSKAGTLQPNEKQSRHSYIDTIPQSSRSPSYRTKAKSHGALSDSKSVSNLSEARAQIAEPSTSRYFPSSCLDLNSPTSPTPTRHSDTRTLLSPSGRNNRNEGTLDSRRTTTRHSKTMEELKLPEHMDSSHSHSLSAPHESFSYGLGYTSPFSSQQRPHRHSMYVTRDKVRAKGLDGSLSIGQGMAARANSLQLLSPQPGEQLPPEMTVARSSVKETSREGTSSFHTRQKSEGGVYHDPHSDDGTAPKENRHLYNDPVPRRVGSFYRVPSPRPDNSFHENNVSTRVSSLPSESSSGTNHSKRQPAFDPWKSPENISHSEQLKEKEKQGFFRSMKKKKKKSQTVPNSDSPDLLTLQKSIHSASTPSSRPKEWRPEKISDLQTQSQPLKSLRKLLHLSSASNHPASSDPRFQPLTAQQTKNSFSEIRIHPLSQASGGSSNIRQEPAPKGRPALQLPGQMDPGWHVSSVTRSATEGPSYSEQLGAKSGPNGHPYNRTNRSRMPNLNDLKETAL
Chain of UniProt Q8TF76 (whole entry, looked up): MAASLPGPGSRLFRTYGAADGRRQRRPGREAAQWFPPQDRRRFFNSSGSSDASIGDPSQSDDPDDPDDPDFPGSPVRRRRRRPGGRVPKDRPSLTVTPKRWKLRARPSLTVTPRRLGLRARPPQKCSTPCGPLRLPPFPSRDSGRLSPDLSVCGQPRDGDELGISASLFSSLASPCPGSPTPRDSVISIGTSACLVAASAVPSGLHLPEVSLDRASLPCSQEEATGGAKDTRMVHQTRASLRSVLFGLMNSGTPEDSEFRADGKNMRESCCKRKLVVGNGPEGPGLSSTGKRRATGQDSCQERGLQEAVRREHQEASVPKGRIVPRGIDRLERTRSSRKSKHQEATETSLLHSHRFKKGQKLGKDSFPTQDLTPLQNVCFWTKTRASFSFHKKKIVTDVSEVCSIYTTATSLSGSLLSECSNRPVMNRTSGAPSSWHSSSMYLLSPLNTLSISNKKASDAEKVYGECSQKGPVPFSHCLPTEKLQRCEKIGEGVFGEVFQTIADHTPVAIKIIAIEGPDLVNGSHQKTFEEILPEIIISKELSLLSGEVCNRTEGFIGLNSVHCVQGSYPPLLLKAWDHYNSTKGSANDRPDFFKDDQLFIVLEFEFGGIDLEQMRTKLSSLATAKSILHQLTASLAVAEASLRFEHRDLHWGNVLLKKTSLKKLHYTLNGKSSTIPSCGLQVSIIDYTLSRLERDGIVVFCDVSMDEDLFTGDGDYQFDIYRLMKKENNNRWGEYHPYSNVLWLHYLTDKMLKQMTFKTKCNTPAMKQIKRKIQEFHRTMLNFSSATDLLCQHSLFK

Block 1
Compound: c1ccc(Oc2ccc(Nc3c4c(nc5ccccc35)CCC4)cc2)cc1
Organism: Leishmania donovani
Effect on: parasite killing
Strain: DD8
The inhibition was 100% and 99% (promastigotes; 66.66 µM, 24 h).
For intracellular amastigotes; 40 µM, 24 h: inhibition read 100%.
promastigotes; 6.66 µM, 96 h — inhibition: 100% and 99%.

Block 2
SMILES: COc1ccc2[nH]c3c4[nH]c5ccc(OC)cc5c4c4c(c3c2c1)C(=O)NC4=O
Effect on: binding
Tested at: 1 µM
The remaining binding was 78% (CAMKK1 (Homo sapiens, UniProt Q8N5S9)).
The remaining binding was 5.8% (Ribosomal protein S6 kinase alpha-6, N-terminal kinase domain (RPS6KA6, Homo sapiens, UniProt Q9UK32); competition with immobilised ligand).
It gave 9.7% for remaining binding (FLT3 (Homo sapiens, UniProt P36888, K663Q)).

Block 3
Structure (SMILES): Cc1c[nH]c2nccc(Oc3c(F)cc(Nc4cc(Cl)nc(N)n4)cc3F)c12
Technique: competition with immobilised ligand
Tested at: 0.1 µM
Ribosomal protein S6 kinase alpha-6, C-terminal kinase domain (RPS6KA6, Homo sapiens, UniProt Q9UK32); cell-free assay — remaining binding: 99%.
The remaining binding was 86% (EPHB1 (Homo sapiens, UniProt P54762); cell-free assay).
CDK11A (Homo sapiens, UniProt Q9UQ88); binding — remaining binding: 100%.
For PHKG1 (Homo sapiens, UniProt Q16816); cell-free assay: remaining binding read 100%.
It gave 96% for remaining binding (TBK1 (Homo sapiens, UniProt Q9UHD2); cell-free assay).
The remaining binding was 96% (MUSK (Homo sapiens, UniProt O15146); cell-free assay).
The remaining binding was 100% (RET (Homo sapiens, UniProt P07949, V804M); cell-free assay).
The remaining binding was 100% (PAK1 (Homo sapiens, UniProt Q13153); cell-free assay).
The remaining binding was 98% (BRAF (Homo sapiens, UniProt P15056); cell-free assay).
For EPHA7 (Homo sapiens, UniProt Q15375); cell-free assay: remaining binding read 82%.
The remaining binding was 98% (CDC42BPA (Homo sapiens, UniProt Q5VT25); cell-free assay).
Tyrosine-protein kinase ABL1, phosphorylated (ABL1, Homo sapiens, UniProt P00519, T315I); cell-free assay — remaining binding: 84%.
The remaining binding was 83% (Ribosomal protein S6 kinase alpha-4, C-terminal kinase domain (RPS6KA4, Homo sapiens, UniProt O75676); cell-free assay).
SGK2 (Homo sapiens, UniProt Q9HBY8); cell-free assay — remaining binding: 69%.
For NTRK2 (Homo sapiens, UniProt Q16620); cell-free assay: remaining binding read 94%.
For EPHA3 (Homo sapiens, UniProt P29320); cell-free assay: remaining binding read 97%.
MAP3K6 (Homo sapiens, UniProt O95382); cell-free assay — remaining binding: 100%.
For NTRK1 (Homo sapiens, UniProt P04629); cell-free assay: remaining binding read 81%.
It gave 61% for remaining binding (HASPIN (Homo sapiens, UniProt Q8TF76); cell-free assay).
CDKL5 (Homo sapiens, UniProt O76039); cell-free assay — remaining binding: 73%.
For TAOK3 (Homo sapiens, UniProt Q9H2K8); cell-free assay: remaining binding read 100%.
It gave 74% for remaining binding (MAP3K19 (Homo sapiens, UniProt Q56UN5); cell-free assay).

Block 4
Target: Prothrombin, mature alpha-thrombin (F2, Homo sapiens, UniProt P00734)
Technique: aptamer microarray, sandwich
Molecule type: DNA with 2'F-ANA
Matrix: in vitro
Tested at: 200 nM
Setting: whole 15-mer aptamer, many near background
Added: Cy3 exosite-II aptamer, 400 nM
Direction: higher = stronger binding
Oligonucleotide: GGTTGGTGTGGTTGG
Under “mean fluorescence intensity”, `2'F-ANA at 1 3 4 5 6 11 15` is recorded as 51.3 a.u.
Under “mean fluorescence intensity”, `2'F-ANA at 3 4 5 11` is recorded as 100 a.u.
Under “mean fluorescence intensity”, `2'F-ANA at 1 5 6 14` is recorded as 44 a.u.
Under “mean fluorescence intensity”, `2'F-ANA at 4 5 6 7 9 11 12` is recorded as 123 a.u.
`2'F-ANA at 2 3 4 5 6 11 12 15`: “mean fluorescence intensity” 131 a.u.
For `2'F-ANA at 1 2 3 4 5 8 10 11 12`, “mean fluorescence intensity” read 50.8 a.u.
For `2'F-ANA at 7 8 11 12 13 15`, “mean fluorescence intensity” read 728 a.u.
For `2'F-ANA at 1 2 3 5 6 7 8 9 10 11 13 15`, “mean fluorescence intensity” read 52.7 a.u.

Block 5
Species: human
Matrix: microsomes or S9
Tested at: 2 µM
Time: 0.5 h
The remaining compound of CCc1[nH]nc(NCc2cc(Cl)cc(Cl)c2OC)c1C is reported as 0.157%.
N=c1n(CCN2CCCCC2)c2ccccc2n1CC(O)COc1ccccc1 (stereo not drawn) has a remaining compound of 7.14%.
CC(C)Cn1c(=O)c2ccc(C(=O)NC3CCCCC3)cc2n2c(=O)n(Cc3ccccc3)nc12 gave a remaining compound of > 100%.

Further values, each from its own experiment
POLQ ATPase domain: DNA polymerase theta, ATPase domain (POLQ, Homo sapiens, UniProt O75417)
Chain of UniProt O75417 (whole entry, unmodified, looked up): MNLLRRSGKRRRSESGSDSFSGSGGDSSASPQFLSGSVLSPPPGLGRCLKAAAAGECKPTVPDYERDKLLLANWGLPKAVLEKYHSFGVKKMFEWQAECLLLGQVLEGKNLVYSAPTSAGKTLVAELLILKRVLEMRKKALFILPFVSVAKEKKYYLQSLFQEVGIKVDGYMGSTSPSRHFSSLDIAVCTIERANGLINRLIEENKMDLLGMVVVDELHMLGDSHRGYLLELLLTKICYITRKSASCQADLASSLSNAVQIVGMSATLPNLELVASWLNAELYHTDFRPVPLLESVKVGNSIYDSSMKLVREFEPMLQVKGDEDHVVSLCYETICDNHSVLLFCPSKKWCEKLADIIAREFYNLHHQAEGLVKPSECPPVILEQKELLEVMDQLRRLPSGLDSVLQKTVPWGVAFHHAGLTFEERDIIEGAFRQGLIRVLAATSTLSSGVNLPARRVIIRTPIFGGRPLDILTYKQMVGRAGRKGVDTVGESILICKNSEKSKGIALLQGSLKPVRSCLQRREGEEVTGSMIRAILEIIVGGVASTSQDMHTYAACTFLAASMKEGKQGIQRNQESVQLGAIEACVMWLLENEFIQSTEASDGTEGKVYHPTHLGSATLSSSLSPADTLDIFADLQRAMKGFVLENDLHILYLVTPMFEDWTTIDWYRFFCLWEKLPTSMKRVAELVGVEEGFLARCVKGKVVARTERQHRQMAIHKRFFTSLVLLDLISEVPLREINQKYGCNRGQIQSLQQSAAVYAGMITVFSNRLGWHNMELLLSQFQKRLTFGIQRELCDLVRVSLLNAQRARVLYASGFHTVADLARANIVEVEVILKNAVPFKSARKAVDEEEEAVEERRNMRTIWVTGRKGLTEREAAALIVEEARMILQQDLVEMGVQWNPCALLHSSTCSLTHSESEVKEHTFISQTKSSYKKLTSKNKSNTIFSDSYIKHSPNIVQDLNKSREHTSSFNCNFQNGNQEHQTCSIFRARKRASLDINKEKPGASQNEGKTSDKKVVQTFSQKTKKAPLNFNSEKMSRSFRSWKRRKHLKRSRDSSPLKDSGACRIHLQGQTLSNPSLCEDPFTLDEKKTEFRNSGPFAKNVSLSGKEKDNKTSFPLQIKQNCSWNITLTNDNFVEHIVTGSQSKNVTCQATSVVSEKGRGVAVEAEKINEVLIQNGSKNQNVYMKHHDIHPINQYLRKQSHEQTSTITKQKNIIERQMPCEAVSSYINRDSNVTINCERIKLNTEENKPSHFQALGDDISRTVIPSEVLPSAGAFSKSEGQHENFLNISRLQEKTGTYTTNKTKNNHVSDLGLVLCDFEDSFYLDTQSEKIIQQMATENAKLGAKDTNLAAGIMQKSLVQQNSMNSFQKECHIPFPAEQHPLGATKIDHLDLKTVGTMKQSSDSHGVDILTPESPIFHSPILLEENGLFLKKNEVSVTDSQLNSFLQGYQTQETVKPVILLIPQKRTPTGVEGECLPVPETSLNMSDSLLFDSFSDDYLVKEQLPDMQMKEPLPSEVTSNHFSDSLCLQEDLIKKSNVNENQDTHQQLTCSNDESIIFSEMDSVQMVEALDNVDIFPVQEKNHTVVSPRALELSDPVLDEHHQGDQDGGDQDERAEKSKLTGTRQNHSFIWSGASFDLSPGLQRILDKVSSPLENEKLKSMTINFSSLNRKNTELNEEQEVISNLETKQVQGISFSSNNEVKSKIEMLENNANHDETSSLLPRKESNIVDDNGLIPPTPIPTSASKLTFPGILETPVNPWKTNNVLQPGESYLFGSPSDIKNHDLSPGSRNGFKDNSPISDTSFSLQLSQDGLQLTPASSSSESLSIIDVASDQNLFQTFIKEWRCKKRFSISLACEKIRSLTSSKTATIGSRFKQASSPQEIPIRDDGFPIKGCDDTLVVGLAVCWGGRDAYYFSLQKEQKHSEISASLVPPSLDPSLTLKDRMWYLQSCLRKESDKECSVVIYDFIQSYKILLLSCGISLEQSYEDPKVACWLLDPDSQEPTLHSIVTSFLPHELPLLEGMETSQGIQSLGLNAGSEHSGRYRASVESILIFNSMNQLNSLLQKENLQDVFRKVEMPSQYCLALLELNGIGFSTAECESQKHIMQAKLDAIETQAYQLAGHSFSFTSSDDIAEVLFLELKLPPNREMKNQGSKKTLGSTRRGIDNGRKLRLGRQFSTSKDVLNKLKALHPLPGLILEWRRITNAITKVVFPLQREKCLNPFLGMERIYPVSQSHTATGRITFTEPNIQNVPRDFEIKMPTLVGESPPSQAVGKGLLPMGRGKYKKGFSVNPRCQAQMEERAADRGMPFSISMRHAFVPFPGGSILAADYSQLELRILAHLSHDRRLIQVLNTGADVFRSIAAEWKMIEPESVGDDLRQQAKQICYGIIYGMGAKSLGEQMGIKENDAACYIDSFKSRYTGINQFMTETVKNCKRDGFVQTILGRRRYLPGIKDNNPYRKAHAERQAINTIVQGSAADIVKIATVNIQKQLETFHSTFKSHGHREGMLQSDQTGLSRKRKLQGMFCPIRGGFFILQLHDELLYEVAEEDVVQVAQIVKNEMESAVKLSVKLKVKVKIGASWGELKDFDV
With CN(C(=O)c1ccn2ncc(-c3ccc(C(N)=O)cc3)c2c1)c1ccc(C#N)cn1 the luminescence remaining was 83.2% and 73.2% (Cryptosporidium parvum; time-kill; HCT-8, nanoluciferase-expressing; 0.00102 µM, 4 h; reference: DMSO control).
For CCN(CC)C(=O)/C(C#N)=C/c1cc(O)c(O)c([N+](=O)[O-])c1, the remaining activity was 96.2% (POLQ ATPase domain; enzyme activity, inhibitor; 77 µM; reference: untreated).
O=C(c1ccc(C(=O)N2CCC(N3CCCC3)CC2)c(Nc2ccccc2)c1)N1CCC(N2CCCC2)CC1 — result for “nuclear SOX9 intensity”: 104 % of DMSO (mouse MPNST tumor cells; high-content immunofluorescence imaging, measured: nuclear SOX9; 10 µM, 12 h, mean of 2 replicates; reference: DMSO control, higher = more nuclear SOX9).
CC(C)n1cnc(-c2ccc(F)cc2)c1-c1ncc(C(=O)Nc2ccc(N3CCN(C)CC3)cc2)[nH]1: “patients with decreased appetite” 0% (phase 2a trial; idiopathic pulmonary fibrosis patients; 60 mg once daily, adverse event grade 3).
With O=C(COc1ccc(Cl)cc1)NC1CCC(NC(=O)COc2ccc(Cl)cc2)CC1 (stereo not drawn) the reporter signal was 73.4% and 71.2% and 88% and 84.3% and 69.6% and 69.8% and 61.8% (HEK293T ATF4-firefly luciferase reporter; integrated stress response, measured: ATF4; concentration not given; reference: DMSO).
Nc1nc2ccc(Cl)cc2c2nc(-c3ccco3)nn12 gave a remaining activity of 102% (POLQ ATPase domain; enzyme activity, inhibitor; 77 µM; reference: untreated).
For O=C1Cc2c([nH]c3ccc([N+](=O)[O-])cc23)-c2ccccc2N1, the remaining signal was 2.68% (GSK3B (Homo sapiens, UniProt P49841); cell-free assay; 0.5 µM).
O=C1c2c(O)cc(O)cc2OC(c2ccc(O)c(O)c2)C1O (stereo not drawn): “log2 fold change” -0.15 (Sarcocystis neurona; parasite growth; concentration not given, first screen; reference: untreated).
For COc1ccc(-c2c(Nc3ccccn3)[nH]c3c(C4=CCCCC4)c(-c4ccccc4)nn3c2=O)cc1, “last measured concentration” read 10500 ng/mL and 10200 ng/mL (human, plasma; oral, 200 mg twice daily, 24 h).
